Measured values collected from several papers.
Compare with care: the assays were run in different laboratories. Values joined by “and” are separate records of one study, mostly repeats; a detail may differ.
Target: SRSF protein kinase 2 (SRPK2, Homo sapiens, UniProt P78362)

For `CCn1cc(C(=O)O)c(=O)c2c(N)c(F)c(NC3CCCCC3)cc21`, the inhibition was -0.3% (kinase activity; 0.1 µM, together with: ATP at Km).
For `O=C(Nc1ccccc1)Nc1ccccc1O`, the inhibition was 4.3% (enzyme activity, inhibitor, FRET; 10 µM).
For `C=CC(=O)Nc1cccc(-c2cnc3[nH]cc(C(=O)NC(C)(C)C)c3n2)c1`, the inhibition was 2% (enzyme activity, inhibitor; 0.1 µM).
`COc1c(Cl)cccc1Nc1c(-c2ccncc2C#C[C@@]2(C)CCCN2C(=O)/C=C/CN(C)C)[nH]c2c1C(=O)NCC2` gave a remaining binding of 81% (binding, competition with immobilised ligand; 3 µM).
With `Cc1cccc(O[C@H]2CCC[C@@H](C(C)CNCc3ccncc3)C2)c1` (relative stereo) the inhibition was -4% (enzyme activity, inhibitor; 10 µM).
`CCN1CCN(Cc2ccc(C(=O)Nc3ccc(C)c(NCc4cnc5[nH]ccc5c4OC)c3)cc2C(F)(F)F)CC1` gave a remaining binding of 100% (binding, competition with immobilised ligand; 1 µM).
With `COc1cc(Nc2nc(C)cc(-c3cnn4nc(OC)ccc34)n2)cc(C(F)(F)F)c1` the remaining binding was 100% (binding, competition with immobilised ligand; 1 µM).
The inhibition of `O=C(Nc1cccc(C(F)(F)F)c1)Nc1ccccc1O` is reported as 0.6% (enzyme activity, inhibitor, FRET; 10 µM).
The remaining activity of `O=C=[N][Ru-4]123([n]4c5ccc(O)cc5c5c6c(c7cc(F)c[n+]1c7c54)C(=O)NC6=O)[S+]1CC[S+]2CC[S+]3CC1` (stereo not shown) is reported as 30% (enzyme activity; 100 nM, human enzyme, together with: 10 µM ATP; reference: untreated).
`Nc1ncc(-c2cc(-c3cnn(CC(F)(F)F)c3)ncc2F)nc1C(=O)NC1CNCC(F)C1` (stereo not shown) gave a remaining activity of 94.9% (enzyme activity; 1 µM; reference: DMSO control).
The inhibition of `NC(=O)C[C@H]1CCc2sc3ncnc(O[C@H]4CC[C@H](N5CCOCC5)CC4)c3c21` is reported as 2% (enzyme activity, inhibitor; 10 µM).
Under “activity vs control”, `CNC(=O)C[C@H](Cc1ccc(C#N)cc1)NC(=O)c1cc(-c2ccc(CN[C@H](C)c3ccc(C)cc3)o2)ccc1Cl` is recorded as 104% (enzyme activity, inhibitor; 1 µM).
`CN(C(=O)N(C)c1ccc(C#N)cc1)c1ccccc1` gave an inhibition of 0.4% (enzyme activity, inhibitor, FRET; 10 µM).
The remaining activity of `COCC12C(=O)NC3C4(C(OC)CC1O)C1CC5(O)C(OC)C(O)C(OC(C)=O)(C1C5OC(=O)c1ccccc1)C3(O)C(OC)C24` (stereo not shown) is reported as 108% and 100% (kinase activity, inhibitor, ProQinase kinase profiling; 25 µM; reference: control).
With `CN1CC[C@@H](COc2cnc(C#N)cc2-c2ccn3nc(NC(=O)C4CC4)cc3c2)C1` the inhibition was 12% (enzyme activity, inhibitor; 1 µM).
`O=C(Nc1ccccc1)Nc1cccc(O)c1` gave an inhibition of 9.1% (enzyme activity, inhibitor, FRET; 10 µM).
`C=CC(=O)N1Cc2nc(-c3cc(-c4cc(Cl)cnc4Cl)c(F)cc3F)n(-c3ccncn3)c2C1` gave an inhibition of 1.4% (cell-free assay, inhibitor; 1 µM).
With `COc1c(OCCCN2CCOCC2)ccc2c1N=C(NC(=O)c1cnc(N)nc1)N1CCN=C21` the remaining activity was 125% (kinase activity, inhibitor; 1 µM; reference: untreated control).
`Cc1cnc2nc1Nc1cccc(c1)COC/C=C/COCc1cc(ccc1OCCN1CCOCC1)N2` gave a remaining binding of 86% (binding, competition with immobilised ligand; 0.1 µM).
